Published values pooled from the literature.

CCn1cc(-c2cc(Cn3ccoc3=N)cc3c2CCN([C@@H](C)c2cc(OC)ccn2)C3=O)c(C(F)(F)F)n1 — EC50 (NCI-H2126; cell growth, inhibitor; 120 h): > 30 µM
CC1=C(Cn2cc(C(C)(C)O)nn2)C(=O)c2ccccc2C1=O — killing (Schistosoma mansoni; adult worms; 25 µM, 48 h): 44.8%
O=[N+]([O-])O[C@@H]1CO[C@H]2[C@@H]1OC[C@@H]2O — inhibition (Nedd8-cullin1 interaction; neddylation, AlphaScreen; 100 µM): 11.3%
CC1=C(Cc2cn(CCO)nn2)C(=O)c2ccccc2C1=O — killing (Schistosoma mansoni; adult worms; 25 µM, 24 h): 48%
CC(C)NCC(O)c1ccc(O)c(O)c1 (stereo not drawn) — sarcomere length (ventricular cardiomyocytes, C57BL/6 mouse; dose not given, 0.28 s): 1.7 µm
CCn1cc(-c2cc(Cn3ccnc3)cc3c2CCN([C@H](c2cc(OC)ccn2)C2CC2)C3=O)c(C(F)(F)F)n1 — EC50 (NCI-H596; cell growth, inhibitor; 120 h): 6.9 µM
COCCOC(=O)C1=C(C)NC(C)=C(C(=O)OC/C=C/c2ccccc2)C1c1cccc([N+](=O)[O-])c1 (stereo not drawn) — inhibition (Nedd8-cullin1 interaction; neddylation, AlphaScreen; 100 µM): 15.8%
Cn1cc(-c2ccc(-c3cncc(Cl)c3N3CCC4(CCNC4=O)CC3)cc2)cn1 — fold change in expression (COLO 205; microarray, item: BCL2L1; concentration not given, 6 h, gene set Bcl-XL; reference: untreated cells): 1.2
CCOC(=O)[C@H](CCc1ccccc1)N[C@@H](C)C(=O)N1Cc2ccccc2C[C@H]1C(=O)O — inhibition (Nedd8-cullin1 interaction; neddylation, AlphaScreen; 100 µM): 31.7%
CC1=C(Cn2cc(CN3CCN(C(=O)OC(C)(C)C)CC3)nn2)C(=O)c2ccccc2C1=O — killing (Schistosoma mansoni; adult worms; 25 µM, 24 h): 43.8%
COc1cnc2cccc(N3CCc4c(cc(Cn5ccnc5C)cc4-c4cn(C)nc4C(F)(F)F)C3=O)c2c1 — EC50 (LCLC-97TM1; cell growth, inhibitor; 120 h): > 30 µM
Cc1nc(C)c(C)nc1C.Cl — inhibition (Nedd8-cullin1 interaction; neddylation, AlphaScreen; 100 µM): -70.2%
CC1=C(Cc2cn(CC#N)nn2)C(=O)c2ccccc2C1=O — killing (Schistosoma mansoni; adult worms; 10 µM, 48 h): 43.5%
CCC(=O)O[C@@H](O[P@](=O)(CCCCc1ccccc1)CC(=O)N1C[C@H](C2CCCCC2)C[C@H]1C(=O)[O-])C(C)C.[Na+] — inhibition (Nedd8-cullin1 interaction; neddylation, AlphaScreen; 100 µM): 96.8%
CC1=C(Cc2cn(Cc3ccccc3)nn2)C(=O)c2ccccc2C1=O — killing (Schistosoma mansoni; adult worms; 25 µM, 24 h): 54%
